Earlier results as cited in several papers.
Lines come from different studies, so protocols differ. Several values in a cell are separate wells, animals, samples, runs or records. Numbers after ± are the reported error.

Structure (SMILES)	target	assay	test system	setting	IC50
O=C(OC(C(F)(F)F)C(F)(F)F)N1CCC(C(O)(c2ccc3c(c2)OCO3)c2ccc3c(c2)OCO3)CC1	mouse monoacylglycerol lipase	inhibitor			15 nM
Cc1ccc(-c2csc3nnc(SCC(=O)Nc4ccc5c(c4)OCO5)n23)cc1	IDO1	enzyme activity, inhibitor			3000 nM
CCOc1ccc(Cc2cc(C3OC(SC)C(O)C(O)C3OC3OC(C(=O)O)C(O)C(O)C3O)ccc2Cl)cc1 (stereo not drawn)	SGLT2				> 10000 nM
CCCC[C@H]1C(=O)NCC(=O)N[C@@H](CC(=O)O)C(=O)N[C@@H](C(C)C)C(=O)N(C)[C@@H](Cc2ccccc2)C(=O)N[C@@H](Cc2ccc(O)cc2)C(=O)N(C)CC(=O)N[C@@H](Cc2c[nH]c3ccccc23)C(=O)N[C@@H](Cc2ccc(O)cc2)C(=O)N[C@@H](CC(C)C)C(=O)N[C@H](C(=O)NCC(N)=O)CSCC(=O)N[C@@H](Cc2ccccc2)C(=O)N(C)[C@@H](Cc2ccccc2)C(=O)N1C	PD-L1			BMS patent value	14 nM
CNc1nc(C)c(C(=O)/C=C/c2ccc(O)cc2)s1	EGFR tyrosine kinase	inhibitor			33 nM
CCCCCCCCc1ccc(OCC(=O)COc2ccc3c(c2)cc(C(=O)O)n3CCN(C)C)cc1	cPLA2α	inhibitor			> 10000 nM
Oc1ccc(Cl)cc1/C=N/c1nc(-c2ccccc2)cs1	beta-glucuronidase (bovine liver)				5630 nM
CN(C)c1cc(Cl)c(C(=O)N(Cc2ccccc2)c2ccc(O)c(C(C)(C)C)c2)c(Cl)c1	farnesoid X receptor	antagonist			3400 nM
COC(=O)c1ccc2c(c1)NC(=O)/C2=C(\Nc1ccc2c(c1)CCN2C(=O)CN1CCOCC1)c1ccccc1	PDGFR beta	inhibitor			34 nM
CC[C@H](C)[C@H](NC(C)=O)C(=O)N[C@H]1CSSC[C@@H](C(=O)N[C@H](C(N)=O)[C@@H](C)O)NC(=O)[C@H](CCCNC(=N)N)NC(=O)[C@H](Cc2c[nH]cn2)NC(=O)[C@H](C)NC(=O)CNC(=O)[C@H](Cc2c[nH]c3ccccc23)NC(=O)[C@H](CC(=O)O)NC(=O)[C@H](CCC(N)=O)NC(=O)[C@H](Cc2c[nH]c3ccccc23)NC(=O)[C@H](C(C)C)NC1=O	complement classical pathway	ELISA			1200 nM
NS(=O)(=O)Oc1ccc2c3c(c(=O)oc2c1)CCC3	steroid sulfatase		placental microsomes		200 nM and ≥ 200 nM
Cn1cc(C(=O)C(=O)Nc2ccc(C(=O)N3CCCC3)cc2)c2ccccc21	Plasmodium falciparum ENT1	[3H]adenosine uptake	PfENT1-expressing yeast		22.7 ± 7.2 nM
O=C(c1ccc(Br)cc1)[C@H]1[C@H](c2cn(-c3ccccc3)nc2-c2ccccc2)C2CC3CCCCC3N2[C@]12C(=O)Nc1ccc(Cl)cc12 (stereo partly drawn)	CDK2	enzyme activity, inhibitor			35 nM
CCC1SCC(=O)N1c1c(C#N)c2n(c1C(=O)Nc1ccccc1)CCC2 (stereo not drawn)	CDK2	enzyme activity, inhibitor			630 nM
O=C1CCc2ccc(OCc3cccc(Br)c3)cc2N1	monoamine oxidase B	enzyme activity, inhibitor			2.9 nM
COc1ccccc1C(=O)Nc1cccc(-c2nc3ncccc3o2)c1	Plasmodium falciparum ENT1	[3H]adenosine uptake	PfENT1-expressing yeast		10.9 ± 6.8 nM
COc1cc(F)c(C(C)C)cc1C1=C(CN2C(=O)O[C@H](c3cc(C(F)(F)F)cc(C(F)(F)F)c3)[C@@H]2C)CC(C)(C)CC1	CETP	ex vivo CETP activity, inhibitor	cynomolgus monkey	single dose 0.1 to 30 mg/kg	83 nM
O=c1cc2n(cc1O)-c1ccccc1SC2	membrane-bound catechol O-methyltransferase	inhibitor			100 nM
CNC(=O)C1CCN(C(=O)CCC(=O)N(CC(C)(C)C)c2ccc(Cl)cc2C(O)c2ccccc2Cl)CC1 (stereo not drawn)	squalene synthase (rat)	enzyme activity, inhibitor	rat hepatocytes		1.3 nM
O=C(NO)c1ccc(NC(=O)[C@@H](NC(=O)c2ccc3ccccc3c2)c2ccccc2)cc1	HDAC	enzyme activity	HeLa nuclear extract		14.3 nM
O=C(Nc1ccc(-c2nnc(-c3ccco3)o2)cc1)c1ccco1	Plasmodium falciparum ENT1	[3H]adenosine uptake	PfENT1-expressing yeast		13.7 ± 7.5 nM
CSC(=O)OCC1=CC(O)C2C(C(=O)O)=COC(OC3OC(CO)C(O)C(O)C3O)C12 (stereo not drawn)	P2Y14 receptor	antagonist			8290 nM
CC(C)C[C@@H](CN[C@@H](Cc1ccc(Cl)cc1)C(N)=O)NC(=O)[C@H](Cc1c[nH]cn1)NC(=O)CNC(=O)[C@@H](NC(=O)[C@H](C)NC(=O)[C@H](Cc1c[nH]c2ccccc12)NC(=O)[C@H](CCC(N)=O)NC(=O)[C@H](N)Cc1ccccc1)C(C)C	mouse GRP receptor	binding		literature species comparison	4.9 ± 0.8 nM
CNC(=O)COc1ccc(-c2c(C#N)c(NC(=O)c3cccc(C[C@H](N)C(=O)O)c3)n3c(nc4ccccc43)c2C#N)cc1	LAT1	slowly reversible inhibitor			18200 nM

Structure (SMILES)	target	assay	test system	setting	IC50
O=C(O)C1Nc2ccc(Br)cc2C2C=CCC12 (stereo not drawn)	macrophage migration inhibitory factor	tautomerase activity			3400 nM
COc1ccc2c(/C=C(\C)C(=O)c3cc(OC)c(OC)c(OC)c3)c[nH]c2c1	tubulin	tubulin polymerization			2680 nM
COc1cnc(COc2ccc(F)c(F)c2)cc1-c1cc2c([nH]1)CCNC2=O	casein kinase 1 gamma isoforms	enzyme activity, inhibitor			< 10 nM
COc1ccc2c(OCc3nnc4ccc(-c5cc(F)c(F)c(F)c5)nn34)ccnc2c1	c-Met kinase (MET)	inhibitor			4 ± 1 nM
CCc1ccc(CCNC(=O)c2c(O)c(O)cc3c(O)c(-c4c(C)cc5c(C(=O)NCCc6ccc(CC)cc6)c(O)c(O)cc5c4O)c(C)cc23)cc1	Mcl-1 (human)	binding, fluorescence polarization		together with: fluorescent BH3 Bid peptide	~1000 nM
CCc1ccc(Cn2cc(-c3cc(-c4ccc(Br)cc4)nc(N)n3)c3ccccc32)cc1	c-MET	inhibitor			595 nM
OC1CCCC1n1cc(-c2cnn3ccc(N4CCC[C@@H]4c4cc(F)ccc4F)nc23)cn1 (stereo partly drawn)	TRKA wild type	inhibitor			4.4 nM
O=CN1CCN(c2ccc(/C=C3\C(=O)Nc4ccccc43)cc2)CC1	FGFR1	inhibitor			10000 to 20000 nM
O=C(O)c1cc(-c2ccc(C3CC4CC3CN4)cc2)c2ccc(-c3ccc(C(F)(F)F)cc3)cc2c1 (stereo not drawn)	P2Y14 receptor	antagonist			3.11 nM
CSCC[C@@H]1NC(=O)CNC(=O)[C@H](C(C)C)NC(=O)[C@H](CC(N)=O)NC(=O)[C@H](CCC(=O)O)NC(=O)[C@H](Cc2ccc(O)cc2)NC(=O)[C@H](CC(C)C)NC(=O)[C@H](CCC(=O)O)NC(=O)CSC[C@@H](C(N)=O)NC(=O)[C@H](Cc2ccc(O)cc2)NC1=O	GRB2 SH2 domain	binding, surface plasmon resonance			15000 to 20000 nM
CCn1c(SCC(=O)Nc2cccc(C(=O)/C=C/c3ccc(OC)cc3)c2)nc2ccccc2c1=O	BRAF V600E	kinase activity, inhibitor			4600 nM
Oc1c2cc3c(nc2nn1-c1ccccc1)CCC/C3=N\Nc1ccccc1	c-Met kinase	inhibitor			0.92 nM
COc1cc(C(C)C)c(Oc2cnc(N)nc2N)cc1I	P2X7 receptor	inhibitor			> 10000 nM
CCCCCCCCCc1nc2cc(Cl)ccc2c(=O)n1CCCN	PqsR, Pseudomonas aeruginosa	inhibitor			15000 nM and 15500 nM
N=C(N)SCc1ccccc1CSC(=N)N	DMT1				≥ 1000 nM
Cc1cc(CN2CCN(c3c(Br)cnc4[nH]c(-c5ccc(N6CCN(C)CC6)cc5)nc34)CC2)no1	Aurora B kinase	inhibitor			25 nM
N#Cc1cccc(-c2c[nH]c3ncnc(N4CCOCC4)c23)c1	LRRK2				25 nM
CCN(CC)C(=O)CCSc1nnc(COc2ccccc2)o1	15-lipoxygenase	inhibitor			9430 ± 170 nM
CNCCNC(=O)CN1C(=O)Cc2c([nH]c3ccc(Br)cc23)-c2ccc(Cl)cc21	trypanothione synthetase Crithidia fasciculata	enzyme activity, inhibitor			30 nM
Cc1cc(C)c(CNC(=O)c2c(O)c(O)cc3c(O)c(-c4c(C)cc5c(C(=O)NCc6c(C)cc(C)cc6C)c(O)c(O)cc5c4O)c(C)cc23)c(C)c1	Bcl-2 (human)	binding, fluorescence polarization		together with: fluorescent BH3 Bid peptide	~1000 nM
COc1ccc(/C=C/C(=O)OCc2cn(-c3ccccc3)nc2-c2ccc(F)cc2)cc1	HER2	inhibitor			6230 nM
O=C(Nc1cccc(OCC2CCCN2)n1)Nc1csc(-c2ccncc2)n1 (stereo not drawn)	CDK5	ATP-competitive inhibitor			5 nM
Cc1onc(-c2ccc(Cl)o2)c1-c1ccccc1	COX-1				1900 nM
CCCc1scc(-c2cn[nH]c2)c1CC(NC1=NC(C)(C)Cc2cc(Cl)ccc21)C(=O)O (stereo not drawn)	BACE1	AlphaScreen			8 nM
